Assay results pooled from the literature.
A part holds a random share of what one study measured. Positions count from the first letter of the parent shown.

Series 1
Target: RING finger protein unkempt homolog, zinc fingers 1-6, SBP tag (UNK, Homo sapiens, UniProt Q9C0B0, residues 30-357)
Chain of UniProt Q9C0B0 (30-357, looked up): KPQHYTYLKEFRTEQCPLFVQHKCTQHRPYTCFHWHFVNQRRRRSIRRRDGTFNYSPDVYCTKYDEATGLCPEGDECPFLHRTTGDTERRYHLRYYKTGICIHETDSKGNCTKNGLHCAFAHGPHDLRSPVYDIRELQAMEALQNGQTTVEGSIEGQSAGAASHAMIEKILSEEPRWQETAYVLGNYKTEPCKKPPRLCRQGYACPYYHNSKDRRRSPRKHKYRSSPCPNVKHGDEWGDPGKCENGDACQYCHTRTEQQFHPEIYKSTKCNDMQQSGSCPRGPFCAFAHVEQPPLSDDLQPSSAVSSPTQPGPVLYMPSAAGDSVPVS
Technique: RNA Bind-n-Seq
Molecule type: RNA
Medium: in vitro
Tested at: 100 nM
Notes: RNA with constant flanks, vertebrate orthologous sites, ends assumed
Baseline: input RNA pool
Reading: higher = stronger binding
| Oligonucleotide | bound/input enrichment |
| --- | --- |
| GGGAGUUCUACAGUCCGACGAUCGCUUUUAACAAUUAUGUCUGUAAAUGUAUAUUGAGAGAACUGAAGUAUUUAUAAACAGAGCGAUUUAUUUAAGGAAAAGGUCAUUCCUCUUUCAUAUGGUGAUCUGUAUUAAUUCCAUUUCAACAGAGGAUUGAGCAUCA | 0.295 ratio |
| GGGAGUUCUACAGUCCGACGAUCAGGGAUGGUCCCCAAUCCCACCUCUGUCUAUUCUGUAAACUACAACCUGUAAAUAACCUUUAGCAUUCCUAUUGUAACAAAAUUAAUUUUUAUGAAAUAAAUUAUAUUUCCUAGUCUAAUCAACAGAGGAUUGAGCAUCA | 1.55 ratio |
| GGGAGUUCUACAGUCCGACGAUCCAAUUCCAUGGUGGAAGGCUCUGAGCUGAAAAAAGUUCGCUCCAAUUCUCGAGUCUACCAUAGAUACUUCCUGUUAGAUGCAGAUAUGCAGUCCUUAAGGUGGGAGCCUUCAAAGAAAGACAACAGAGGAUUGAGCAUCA | 0.412 ratio |
| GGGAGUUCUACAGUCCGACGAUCUGUCCUUUCUUACUGUCCCCAGCCAGGGCCGGGGACCAGUGUUUCACUGAGGACCUGCAUUAGAAACAUUUUUUAAAUUGUUGUACAGGAAGAGAUGUGUCUAAAACAGCAUCUUAAAGCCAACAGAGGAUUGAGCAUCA | 0.933 ratio |
| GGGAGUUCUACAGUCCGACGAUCGUUAGGUCAUGACCCUUAUAGGCUAGGUCAUGAUGCCUACAGGUUAGGGCAAGACCCCUAUAGAUUAGGCCAUGAUCCCUACAGACUAACUCCUGAUCCCUAUAGGAUGUCACCUAGACCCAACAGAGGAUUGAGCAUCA | 0.495 ratio |
| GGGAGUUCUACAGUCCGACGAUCGCCGUCUGAUUGGAUAAAGACCGUCCCAAGUUACAACCAAACAAACAGUUCCAUGGACUUUAGAAAUUAUAUGAUGCGAGAUGAAAAUCUGGAACCACUGCCCAAAAACUGGGAAAUGGCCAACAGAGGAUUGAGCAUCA | 0.722 ratio |
| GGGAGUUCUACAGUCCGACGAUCAAAUGCGAUGGUCGAAGGCUCUGAGCUCAAAAAGAUUCGAUCCAACUCCAGGGUGUAUCACCGAUACUUUCUUCUAGACGCAGAUAUGCAGUCUCUACGCUGGGAACCUUCAAAAAAGGACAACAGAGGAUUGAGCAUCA | 0.188 ratio |
| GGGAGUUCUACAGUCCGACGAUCAUAGGGGUGGGGUGGGAAAGGGAUAUGGAUGUUAGGAUGUUAUUGGCAUUUUUAAGUGUUCCAGGGUUUUGUUUUGUUGUUGUUAAUGUUCCUGUUUUCCCCUCAUUAAUUGGAUGCACUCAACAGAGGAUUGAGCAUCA | 0.973 ratio |
| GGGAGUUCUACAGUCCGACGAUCAUAUGUAGAGAAAAAUUUGCUUUGACCCCACCCGUUUGUGAAAUUCCUUAGAAAUUUACUUGGAAUCUUCAUUUUUCUAAUUCAAGCUCACUGCAUUAGUCAUUUUUAGCCCGUAAUUAACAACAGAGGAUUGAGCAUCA | 1.55 ratio |
| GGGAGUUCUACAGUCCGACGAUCUCAGUCUUCCUGUUAUGGUCAGCUUCAAAUCUACAGCAUUUAUGACAAAUGUAUUAUAUCUAGUUACGUUGAGUUUAAUAUUUUUUAUUAGCCUGUAAAUAAAUAAAGAUGGCAUCGUCCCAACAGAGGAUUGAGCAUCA | 0.563 ratio |
| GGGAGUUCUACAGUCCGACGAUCUACCAGCUUAGCGAACACAGUUUUGGAGAAAUAAUAAUAAUAUUUAAAAAAUAAAGAGCCUGAUUGGUAUCUUUUUGUCUAACUGUUUUUCAAAGAGAAAGUUUAAAAGAAAAAAAAAGACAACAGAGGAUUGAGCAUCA | 0.517 ratio |

Series 2
Target: RNA binding protein fox-1 homolog 2, RRM domain, GST-SBP tag (RBFOX2, Homo sapiens, UniProt O43251-10, residues 100-194)
Technique: RNA Bind-n-Seq
Molecule type: RNA
Medium: in vitro
Tested at: 365 nM
Notes: natural RNA segment, single round, ends assumed
Baseline: no-protein control
Reading: higher = stronger binding
Target sequence (chain): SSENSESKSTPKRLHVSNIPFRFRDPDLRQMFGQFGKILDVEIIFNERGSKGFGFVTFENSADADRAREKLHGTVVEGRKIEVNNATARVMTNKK
| Oligonucleotide | RBNS enrichment (R) |
| --- | --- |
| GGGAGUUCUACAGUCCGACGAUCUUUUUGGAAGGACUACAGAAAGUACCUGAUUUGCACUUGAACCAGAUUAUAGAUUUAAAAGUAUAUGACAUGUAUUUUGUAUUUAAAACUAGAAUAGCCAGUAUUUAUGUUGGAAUUCUCGGGUGCCAA | 0.842 |
| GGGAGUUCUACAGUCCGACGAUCCCGGGAGGAGUGACUCCUCUGAAGAAGACAUGACUCAUGUUCAGUUGAGACCCCAGACUCUAGCCACACACAUGCCACAGACAUGCCAGGGAGUGGCAAAGCACUGACUCUGGAAUUCUCGGGUGCCAA | 0.705 |
| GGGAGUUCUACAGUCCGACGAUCCAUCCAUUGUAGAGGGUGAGAAUAAAGGAGAAAUUAAAGCAUCUUGCAGGCUGGGCGCGGUAGCUCAUGUCUGUAAUCCCAGCACUUUGGGAGGCCGAGGUGGGUGUAUCUGGAAUUCUCGGGUGCCAA | 1.14 |
| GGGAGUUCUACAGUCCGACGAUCAGAGACAGAAGCAGGCUGGAGGUAAGGCCUUUGAGCCCACAAAGCCUUAUCAAGUGUCUUCCAUCAUGGAUUCAUUACAGCUUAAUCAAAAUAACGCCCCAGAUACCAGCUGGAAUUCUCGGGUGCCAA | 0.218 |
| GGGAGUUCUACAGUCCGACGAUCUUCUUUAAGUUGACUUUUUUUACUUCAUUAUUUUUAGGAAUAAAUGUAAGAUUUUACAAAUCUUUUAUUUCCCCACAAGAUCUGAAGUUUGGUAUUUUUGCAUUAUGACAUGGAAUUCUCGGGUGCCAA | 2.41 |
| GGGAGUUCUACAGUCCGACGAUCGGGCAGGGUUGGCUGGUAUGGUCAUCAGUAUGGGUCGUGACAGUCAAUGUCACUUCCUUCUCUAGGAUCUCUCAGAUUCUAUCUCCCCAAGACAGGCAGGGAAAUUCUAAUGGAAUUCUCGGGUGCCAA | 0.245 |
| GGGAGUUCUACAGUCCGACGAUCAUAAUCUGCUGCCAUUCCUUGUCUGAAUGGCUCAGCAGGAGUAACUGUUAUCUCCUCUCCUAAGGAGAUGAAGACCUAACAGGGGCACUGCGGCUGGGCUGCUUUAGGAGUGGAAUUCUCGGGUGCCAA | 0.204 |
| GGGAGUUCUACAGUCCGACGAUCCUGGCACUCCUUGCUUUCAUCACCUUGACUUCUUCCUCUCAGUAGUGCCAAUCUCUCUAGGACCCUUAUAGCUCCCCACUCCCCCCAAAUCAAGUCCCAUGCUCCAAUCUUGGAAUUCUCGGGUGCCAA | 1.43 |
| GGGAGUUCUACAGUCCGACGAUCAACCUGUGUUGUAUUUUUUCUGAGAUGUUUUGCUUUAAGAGAUACUUUUUGCUCAGUUUUUAUAUGCCAGAUACAGAGAAUUUGUAGCGGUUAUUUUUGUAUGAUCUAGUUGGAAUUCUCGGGUGCCAA | 1.29 |
| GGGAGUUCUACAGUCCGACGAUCGAUUCAGGAAAGAAUGUUACCAGCUCAAAUUCCGAGGAUUUUUUUUUCCACAGCAAAGAAUAUUUGAUAAUGGUUGCACUUAUCUUCAGUACAGGCUAGAAAAGAGUUCUUGGAAUUCUCGGGUGCCAA | 3.05 |
| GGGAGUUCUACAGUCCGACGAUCCCAUUUCUCUUUGUAGAUAAAAAGCAUUAUCUAUGAUUGUUGUAUAAUAAAUUGAUUUUUACAUUAAUGCAUGUUGCGAGUUUUAUUUGGUUCAAAGCAGUUAAAAUGUAUGGAAUUCUCGGGUGCCAA | 2.83 |
| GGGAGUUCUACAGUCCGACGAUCAGAACUGUGGUCUCUGUGGAGAACCUAGUACAGAGCCUGAGCAAGGCAAUGGACCACCUCCUUUUCCUCAAACUGAUGGAUCACCACUGUUAAUCUAUACCAGGUGUGAAUGGAAUUCUCGGGUGCCAA | 0.302 |

Series 3
Target: Histone acetyltransferase KAT6A, both winged helices, GST fusion (KAT6A, Homo sapiens, UniProt Q92794, residues 1-181)
Technique: protein binding microarray
Molecule type: double-stranded DNA, one strand shown
Medium: in vitro
Tested at: not given
Notes: 8-mer, flanks averaged, mean of 2 arrays, mostly near background
Baseline: not given
Reading: higher = stronger binding
Residues (chain): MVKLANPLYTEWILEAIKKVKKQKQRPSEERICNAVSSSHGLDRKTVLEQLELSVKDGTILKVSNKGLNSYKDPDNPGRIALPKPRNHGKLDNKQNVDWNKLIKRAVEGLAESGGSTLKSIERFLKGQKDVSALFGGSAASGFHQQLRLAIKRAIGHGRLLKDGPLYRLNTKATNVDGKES
| Oligonucleotide | E-score |
| --- | --- |
| TCAATGAA | -0.1 |
| GTTACACA | -0.0323 |
| ACAGGACG | 0.115 |
| CTAGATCA | -0.138 |
| ACATGCGA | 0.0473 |
| AAATCTTG | -0.0899 |
| GGACCGGA | 0.132 |
| CGGGGTCC | 0.181 |
| CAATTCGC | 0.112 |
| CTAGCACC | -0.0767 |
| ATTGGTGA | -0.246 |
| CCCCTCTC | -0.247 |
| AACCTTGT | 0.0138 |
| ACATTCTA | -0.141 |
| CAATTATG | 0.14 |
| ACCTTAAC | 0.0788 |
| AATTGGCC | -0.152 |
| ATGGCCGA | 0.0709 |
| CAAATGAC | -0.0896 |
| ACTAACTG | -0.0723 |
| ATTCTATG | -0.0764 |
| GCTAGCCA | -0.135 |
| TGTCAACA | -0.0285 |
| AAGCCGGT | 0.261 |

Series 4
Target: CCND3, cyclin fold, Cln2 fusion (human)
Technique: yeast growth competition, sequencing
Medium: yeast
Notes: weak parent motif
Baseline: not given
Reading: higher = stronger binding
Starting sequence: PKMYT1 docking peptide (human); SFEPRNLLSLFED
| Change | normalised enrichment score |
| --- | --- |
| F2S | 0.035 |
| L8K | 0.201 |
| F2G | 0.215 |
| L7S | 0.136 |
| P4L | 0.0614 |
| F11M | 0.0683 |
| E12Y | 0.139 |
| F2L | 0.0871 |
| N6C | 0.13 |
| R5N | 0.109 |
| S1V | 0.164 |
| P4A | 0.0796 |
| D13Y | 0.0557 |
| N6K | 0.0758 |
| E12R | 0.159 |
| L8Q | 0.0866 |
| S9F | 0.0604 |
